Published values of several laboratories.
Target: C-X-C chemokine receptor type 4 (CXCR4, Homo sapiens, UniProt P61073)

CC(=O)[O][Cu+].CN1CCN2CCN(C)CCN(CC1)CC2 has an IC50 of 298 nM (calcium signal, antagonist, fluorescence).
CC(C)C[C@@H](N)C(=O)NCC(=O)N[C@H](C)C(=O)N[C@H](CO)C(=O)N[C@H](Cc1c[nH]c2ccccc12)C(=O)N[C@H](Cc1c[nH]cn1)C(=O)N[C@H](CCCNC(=N)N)C(=O)N1CCC[C@@H]1C(=O)N[C@H](CC(=O)O)C(=O)N[C@H](CCCCN)C(=O)N[C@H](CCCCN)C(=O)N[C@H](CCCNC(=N)N)C(=O)NCCCCCC(=O)N[C@@H](CCCCN)C(=O)N[C@@H](CCCNC(=N)N)C(=O)N[C@@H](CCCCN)C(=O)N[C@H](C(=O)N[C@@H](CC(N)=O)C(=O)N[C@@H](CC(N)=O)C(=O)N[C@@H](CC(N)=O)C(=O)N1CCC[C@H]1C(=O)N[C@@H](CCCNC(=N)N)C(=O)N[C@H](C(=O)N[C@@H](CS)C(N)=O)[C@@H](C)O)[C@@H](C)O has an IC50 of 2870 nM (cell migration, antagonist).
With CC(=O)[O][Cu+].CN1CCCN2CCN(C)CCCN(CC1)CC2 the IC50 was 28 nM (ligand displacement, flow cytometry).
CC(C)C[C@@H](N)C(=O)NCC(=O)N[C@H](C)C(=O)N[C@H](CO)C(=O)N[C@H](Cc1c[nH]c2ccccc12)C(=O)N[C@H](Cc1c[nH]cn1)C(=O)N[C@H](CCCNC(=N)N)C(=O)N1CCC[C@@H]1C(=O)N[C@H](CC(=O)O)C(=O)N[C@H](CCCCN)C(=O)N[C@H](CSSC[C@@H](NC(=O)[C@@H](CCCCN)NC(=O)[C@@H](CC(=O)O)NC(=O)[C@H]1CCCN1C(=O)[C@@H](CCCNC(=N)N)NC(=O)[C@@H](Cc1c[nH]cn1)NC(=O)[C@@H](Cc1c[nH]c2ccccc12)NC(=O)[C@@H](CO)NC(=O)[C@@H](C)NC(=O)CNC(=O)[C@H](N)CC(C)C)C(=O)N[C@H](C)C(=O)N[C@H](CC(C)C)C(=O)NCC(=O)N[C@H](Cc1ccc(O)cc1)C(=O)N[C@H](CCC(N)=O)C(=O)N[C@H](CCCCN)C(=O)N[C@H](CCCNC(=N)N)C(=O)N1CCC[C@@H]1C(=O)N[C@H](CC(C)C)C(=O)N1CCC[C@@H]1C(N)=O)C(=O)N[C@H](C)C(=O)N[C@H](CC(C)C)C(=O)NCC(=O)N[C@H](Cc1ccc(O)cc1)C(=O)N[C@H](CCC(N)=O)C(=O)N[C@H](CCCCN)C(=O)N[C@H](CCCNC(=N)N)C(=O)N1CCC[C@@H]1C(=O)N[C@H](CC(C)C)C(=O)N1CCC[C@@H]1C(N)=O gave an IC50 of 3 nM (ligand displacement).
With CN1C(=O)[C@@H](Cc2ccc(O)c(I)c2)NC(=O)CNC(=O)[C@H](Cc2ccc3ccccc3c2)NC(=O)[C@H](CCCNC(=N)N)NC(=O)[C@H]1CCCNC(=S)Nc1ccc(CN2CCN(CC(=O)O)CCN(CC(=O)O)CC2)cc1 the IC50 was 100 nM (ligand displacement, radioligand).
N=C(N)NCCC[C@@H]1NC(=O)[C@@H]2CSSC[C@H](NC(=O)[C@H](Cc3ccc4ccccc4c3)NC(=O)[C@H](CCCNC(=N)N)NC(=O)[C@H](CCCNC(=N)N)NC(=O)[C@H]3CCCN3C(=O)CNC1=O)C(=O)N[C@@H](Cc1ccc(O)cc1)C(=O)N[C@@H](CCC(N)=O)C(=O)N[C@@H](CCCCNC(=O)CCOCCOCCOCCOCCOCCOCCOCCOCCOCCOCCOCCOCCNC(=O)CN1CCN(CC(=O)O)CCN(CC(=O)O)CCN(CC(=O)O)CC1)C(=O)N1CCC[C@@H]1C(=O)N1CCC[C@H]1C(=O)N[C@@H](Cc1ccc(O)cc1)C(=O)N[C@@H](CCCNC(=N)N)C(=O)N[C@@H](CCCNC(N)=O)C(=O)N2 has an IC50 of 1.42 nM.
CC(C)C[C@@H](N)C(=O)NCC(=O)N[C@H](C)C(=O)N[C@H](CO)C(=O)N[C@H](Cc1c[nH]c2ccccc12)C(=O)N[C@H](Cc1cnc[nH]1)C(=O)N[C@H](CCCNC(=N)N)C(=O)N1CCC[C@@H]1C(=O)N[C@H](CC(=O)O)C(=O)N[C@H](CCCCN)C(N)=O has an IC50 of 2000 nM (ligand displacement in cells).
N=C(N)NCCC[C@H](NC(=O)[C@@H]1CSSC[C@H](NC(=O)[C@H](Cc2ccc3ccccc3c2)NC(=O)[C@H](CCCNC(=N)N)NC(=O)[C@H](CCCNC(=N)N)NC(=O)c2ccc(F)cc2)C(=O)N[C@@H](Cc2ccc(O)cc2)C(=O)N[C@@H](CCCNC(N)=O)C(=O)N[C@@H](CCCCNC(=O)CN2CCN(CC(=O)O)CCN(CC(=O)O)CCN(CC(=O)O)CC2)C(=O)N[C@H](CCCCNC(=O)CN2CCN(CC(=O)O)CCN(CC(=O)O)CCN(CC(=O)O)CC2)C(=O)N2CCC[C@H]2C(=O)N[C@@H](Cc2ccc(O)cc2)C(=O)N[C@@H](CCCNC(=N)N)C(=O)N[C@@H](CCCNC(N)=O)C(=O)N1)C(N)=O has an IC50 of 2.47 nM (ligand displacement, radioligand).
CN1C(=O)[C@@H](Cc2ccc(O)c(I)c2)NC(=O)CNC(=O)[C@H](Cc2ccc3ccccc3c2)NC(=O)[C@H](CCCNC(=N)N)NC(=O)[C@H]1CCCNC(=O)c1ccc(CNC(=O)CN2CCN(CC(=O)O)CCN(CC(=O)O)CC2)cc1 has an IC50 of 27.5 nM (ligand displacement, radioligand).
N=C(N)NCCC[C@@H]1NC(=O)[C@@H]2CSSC[C@H](NC(=O)[C@H](Cc3ccc4ccccc4c3)NC(=O)[C@H](CCCNC(=N)N)NC(=O)[C@H](CCCNC(=N)N)NC(=O)[C@H]3CCCN3C(=O)CNC1=O)C(=O)N[C@@H](Cc1ccc(O)cc1)C(=O)N[C@@H](CCC(N)=O)C(=O)N[C@@H](CCCCNC(=O)CN1CCN(CC(=O)O)CCN(CC(=O)O)CCN(CC(=O)O)CC1)C(=O)N1CCC[C@@H]1C(=O)N1CCC[C@H]1C(=O)N[C@@H](Cc1ccc(O)cc1)C(=O)N[C@@H](CCCNC(=N)N)C(=O)N[C@@H](CCCNC(N)=O)C(=O)N2 has an IC50 of 0.47 nM.
CCOc1ccccc1-c1nnc2n1N=C(c1ccc(N3CCCC3=O)cc1)CS2 has an EC50 of 80 nM (cAMP, agonist).
